Measurements pooled from the literature.
Protocols differ between the studies behind these lines. ± gives the spread as reported.
PARP1: Poly [ADP-ribose] polymerase 1 (PARP1, Homo sapiens, UniProt P09874)
UniProt P09874, sequence (whole entry, looked up): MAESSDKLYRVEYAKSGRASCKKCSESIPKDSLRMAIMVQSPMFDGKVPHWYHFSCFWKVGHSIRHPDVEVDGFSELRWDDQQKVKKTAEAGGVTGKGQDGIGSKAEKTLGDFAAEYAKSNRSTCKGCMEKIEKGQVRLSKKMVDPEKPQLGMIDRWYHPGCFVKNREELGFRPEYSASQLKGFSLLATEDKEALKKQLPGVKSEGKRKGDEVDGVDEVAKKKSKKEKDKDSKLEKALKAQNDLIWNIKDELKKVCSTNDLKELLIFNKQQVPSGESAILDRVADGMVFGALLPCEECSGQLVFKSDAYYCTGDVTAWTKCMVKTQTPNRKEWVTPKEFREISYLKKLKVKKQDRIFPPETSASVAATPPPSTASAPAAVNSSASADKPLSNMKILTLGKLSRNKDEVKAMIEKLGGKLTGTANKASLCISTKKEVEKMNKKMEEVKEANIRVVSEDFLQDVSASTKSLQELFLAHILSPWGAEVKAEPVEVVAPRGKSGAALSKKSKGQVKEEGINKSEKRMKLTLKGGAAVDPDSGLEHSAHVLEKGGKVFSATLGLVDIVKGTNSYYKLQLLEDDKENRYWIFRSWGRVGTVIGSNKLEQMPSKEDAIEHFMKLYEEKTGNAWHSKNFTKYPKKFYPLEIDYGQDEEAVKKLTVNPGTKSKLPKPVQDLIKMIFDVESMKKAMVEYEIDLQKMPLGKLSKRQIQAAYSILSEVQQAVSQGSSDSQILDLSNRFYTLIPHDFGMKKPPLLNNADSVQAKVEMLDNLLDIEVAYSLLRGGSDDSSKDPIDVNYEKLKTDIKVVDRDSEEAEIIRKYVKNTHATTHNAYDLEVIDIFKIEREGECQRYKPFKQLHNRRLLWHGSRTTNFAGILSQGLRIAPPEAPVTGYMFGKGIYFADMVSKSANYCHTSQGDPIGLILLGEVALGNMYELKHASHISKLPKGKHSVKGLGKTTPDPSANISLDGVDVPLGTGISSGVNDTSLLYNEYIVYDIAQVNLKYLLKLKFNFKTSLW
TGFBR1: TGF-beta receptor type-1 (TGFBR1, Homo sapiens, UniProt P36897)
UniProt P36897, sequence (whole entry, looked up): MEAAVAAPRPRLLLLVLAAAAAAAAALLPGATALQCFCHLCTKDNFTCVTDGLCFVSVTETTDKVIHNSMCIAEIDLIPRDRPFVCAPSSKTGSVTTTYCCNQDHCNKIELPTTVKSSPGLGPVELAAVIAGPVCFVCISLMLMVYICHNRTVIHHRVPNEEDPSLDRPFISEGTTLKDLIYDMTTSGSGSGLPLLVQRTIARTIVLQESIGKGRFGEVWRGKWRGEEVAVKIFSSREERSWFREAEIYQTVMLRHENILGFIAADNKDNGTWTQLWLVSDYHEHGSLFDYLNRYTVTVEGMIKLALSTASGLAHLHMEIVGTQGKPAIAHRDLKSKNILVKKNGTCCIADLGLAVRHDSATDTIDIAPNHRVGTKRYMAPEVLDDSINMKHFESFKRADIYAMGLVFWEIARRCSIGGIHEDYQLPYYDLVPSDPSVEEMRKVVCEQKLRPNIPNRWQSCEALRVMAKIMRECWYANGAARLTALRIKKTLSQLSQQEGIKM
TYMS: Thymidylate synthase (TYMS, Homo sapiens, UniProt P04818)
UniProt P04818, sequence (whole entry, looked up): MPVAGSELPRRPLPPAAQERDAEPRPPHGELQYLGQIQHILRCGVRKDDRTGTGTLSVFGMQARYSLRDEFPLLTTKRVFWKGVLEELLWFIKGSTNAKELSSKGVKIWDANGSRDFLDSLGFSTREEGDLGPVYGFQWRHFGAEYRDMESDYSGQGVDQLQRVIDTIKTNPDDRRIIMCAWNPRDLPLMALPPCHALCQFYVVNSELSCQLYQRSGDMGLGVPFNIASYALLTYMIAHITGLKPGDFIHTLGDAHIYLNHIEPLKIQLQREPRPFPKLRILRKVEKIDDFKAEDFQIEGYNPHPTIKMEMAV
Protein lin-28 homolog A: Protein lin-28 homolog A (Mus musculus, UniProt Q8K3Y3)
UniProt Q8K3Y3, sequence (whole entry, looked up): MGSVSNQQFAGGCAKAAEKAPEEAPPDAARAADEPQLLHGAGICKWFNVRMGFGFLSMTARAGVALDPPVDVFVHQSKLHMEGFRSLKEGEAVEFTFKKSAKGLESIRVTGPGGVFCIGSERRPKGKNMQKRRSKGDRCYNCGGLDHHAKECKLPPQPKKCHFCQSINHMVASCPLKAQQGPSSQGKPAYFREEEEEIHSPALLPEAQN
F11: Coagulation factor XI (F11, Homo sapiens, UniProt P03951)
UniProt P03951, sequence (whole entry, looked up): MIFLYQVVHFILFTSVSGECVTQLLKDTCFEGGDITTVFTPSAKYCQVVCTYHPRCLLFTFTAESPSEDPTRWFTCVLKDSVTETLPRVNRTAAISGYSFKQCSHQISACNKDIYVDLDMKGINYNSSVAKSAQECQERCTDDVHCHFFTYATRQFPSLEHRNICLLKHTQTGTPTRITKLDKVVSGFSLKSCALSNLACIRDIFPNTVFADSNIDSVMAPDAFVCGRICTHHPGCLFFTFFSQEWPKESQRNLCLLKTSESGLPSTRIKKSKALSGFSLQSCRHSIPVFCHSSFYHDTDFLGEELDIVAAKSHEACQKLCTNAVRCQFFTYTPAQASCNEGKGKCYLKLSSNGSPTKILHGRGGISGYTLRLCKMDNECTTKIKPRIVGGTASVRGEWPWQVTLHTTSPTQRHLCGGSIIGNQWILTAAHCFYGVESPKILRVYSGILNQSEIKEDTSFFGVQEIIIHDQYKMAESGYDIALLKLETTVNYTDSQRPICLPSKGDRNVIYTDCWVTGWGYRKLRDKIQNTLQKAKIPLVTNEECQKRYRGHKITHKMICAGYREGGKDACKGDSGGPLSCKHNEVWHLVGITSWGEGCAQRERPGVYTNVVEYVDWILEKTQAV
UniProt O60674, sequence (whole entry, looked up): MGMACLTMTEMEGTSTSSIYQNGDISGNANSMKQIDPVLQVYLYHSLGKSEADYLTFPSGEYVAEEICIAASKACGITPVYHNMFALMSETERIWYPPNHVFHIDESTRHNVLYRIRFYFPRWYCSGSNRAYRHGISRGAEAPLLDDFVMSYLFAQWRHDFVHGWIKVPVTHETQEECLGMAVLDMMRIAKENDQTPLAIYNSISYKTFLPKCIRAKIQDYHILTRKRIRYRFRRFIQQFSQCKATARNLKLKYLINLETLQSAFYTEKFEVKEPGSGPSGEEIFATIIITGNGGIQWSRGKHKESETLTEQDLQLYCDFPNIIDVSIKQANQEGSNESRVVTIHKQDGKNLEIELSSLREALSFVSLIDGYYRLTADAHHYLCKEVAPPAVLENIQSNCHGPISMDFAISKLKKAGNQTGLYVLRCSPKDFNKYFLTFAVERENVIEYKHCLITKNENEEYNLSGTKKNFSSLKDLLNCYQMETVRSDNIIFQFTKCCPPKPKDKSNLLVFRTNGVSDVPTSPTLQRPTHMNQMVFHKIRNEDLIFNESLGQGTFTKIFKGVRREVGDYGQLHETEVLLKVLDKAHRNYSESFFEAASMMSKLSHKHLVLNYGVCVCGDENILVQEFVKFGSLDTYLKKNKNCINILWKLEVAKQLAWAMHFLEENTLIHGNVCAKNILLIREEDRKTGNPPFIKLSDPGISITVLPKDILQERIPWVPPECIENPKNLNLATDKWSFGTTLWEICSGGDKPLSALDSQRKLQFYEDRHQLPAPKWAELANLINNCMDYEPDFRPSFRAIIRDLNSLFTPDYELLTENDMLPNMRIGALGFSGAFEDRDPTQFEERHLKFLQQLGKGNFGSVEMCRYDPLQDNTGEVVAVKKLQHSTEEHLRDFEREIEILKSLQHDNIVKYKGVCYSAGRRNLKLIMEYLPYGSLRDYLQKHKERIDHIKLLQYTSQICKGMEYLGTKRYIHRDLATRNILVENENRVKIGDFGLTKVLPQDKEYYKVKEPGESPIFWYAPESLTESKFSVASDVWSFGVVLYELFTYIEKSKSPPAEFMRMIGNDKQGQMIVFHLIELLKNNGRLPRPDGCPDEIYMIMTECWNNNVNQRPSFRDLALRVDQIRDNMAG
UniProt P08659, sequence (whole entry, looked up): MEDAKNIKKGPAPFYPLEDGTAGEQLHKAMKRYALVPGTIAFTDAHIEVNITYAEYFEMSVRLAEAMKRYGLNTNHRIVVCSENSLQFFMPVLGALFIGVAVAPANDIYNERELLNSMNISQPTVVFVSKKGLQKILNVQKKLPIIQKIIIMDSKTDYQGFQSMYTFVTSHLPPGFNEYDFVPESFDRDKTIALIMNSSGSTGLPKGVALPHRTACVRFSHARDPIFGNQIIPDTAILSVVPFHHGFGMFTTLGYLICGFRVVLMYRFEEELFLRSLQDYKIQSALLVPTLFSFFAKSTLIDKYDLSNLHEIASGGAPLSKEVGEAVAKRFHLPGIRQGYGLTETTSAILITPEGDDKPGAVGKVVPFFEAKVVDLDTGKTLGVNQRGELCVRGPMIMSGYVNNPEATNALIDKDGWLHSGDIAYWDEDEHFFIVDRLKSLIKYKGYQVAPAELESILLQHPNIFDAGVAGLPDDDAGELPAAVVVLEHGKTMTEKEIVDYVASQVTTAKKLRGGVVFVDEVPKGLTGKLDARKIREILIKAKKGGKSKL
UniProt Q9BSA9, sequence (whole entry, looked up): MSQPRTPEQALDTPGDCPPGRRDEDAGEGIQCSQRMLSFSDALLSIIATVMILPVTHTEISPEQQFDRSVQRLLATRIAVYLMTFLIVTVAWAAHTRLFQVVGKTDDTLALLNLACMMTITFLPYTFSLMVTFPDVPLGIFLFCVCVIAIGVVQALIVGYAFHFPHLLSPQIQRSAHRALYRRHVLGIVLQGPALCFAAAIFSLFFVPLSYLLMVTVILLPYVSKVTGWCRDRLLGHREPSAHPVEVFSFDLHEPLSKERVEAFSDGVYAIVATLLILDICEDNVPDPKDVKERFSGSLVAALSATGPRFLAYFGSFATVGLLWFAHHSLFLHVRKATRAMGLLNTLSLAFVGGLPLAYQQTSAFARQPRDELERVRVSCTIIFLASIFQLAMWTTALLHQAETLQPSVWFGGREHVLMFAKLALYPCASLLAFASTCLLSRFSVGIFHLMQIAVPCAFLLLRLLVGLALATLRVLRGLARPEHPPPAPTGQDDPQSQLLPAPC

| SMILES | tested on | test | test system | conditions | measurement | value |
| --- | --- | --- | --- | --- | --- | --- |
| NC(=O)c1cccc2c1O/C(=C\c1ccc(C(=O)N3CCN(c4nc5cc(Cl)ccc5[nH]4)CC3)s1)C2=O | PARP1 | inhibitor |  |  | IC50 | 140 nM |
| CC[C@@H]1[C@H](F)C(=O)N[C@@H]1COc1nccc2cc(C(N)=O)c(OC)cc12 | VRK2 (Homo sapiens, UniProt Q86Y07) | ATP-site probe binding, ActivX profiling | THP-1 cell lysate | Lys2 site | IC50 | > 5000 nM |
| Cc1ccccc1-c1nc(-c2ccc(F)cc2)c(-c2ccncc2)[nH]1 | TGFBR1 | binding, LanthaScreen kinase binding |  |  | IC50 | 145 ± 6.3 nM |
| COC(=O)C1CCN(C(=O)Cc2ccc(NCc3cnc4nc(N)nc(N)c4n3)cc2)CC1 | TYMS | inhibitor |  |  | IC50 | > 100000 nM |
| Cc1cc(CN=C(N)NC(N)=S)c(C)cc1CN=C(N)NC(N)=S | Protein lin-28 homolog A |  |  |  | IC50 | 4200 nM |
| COC(=O)C1CCN(C(=O)c2ccc(N(CCO)Cc3cnc4nc(N)nc(N)c4n3)cc2)CC1 | TYMS | inhibitor |  |  | IC50 | > 100000 nM |
| CCCC(C)N1CCC(N(Cc2cccc(NC(=O)CCl)c2)C(=O)Nc2cccc(C(F)(F)F)c2)CC1 (stereo not shown) | DCN1-like protein 1, PONY domain (Homo sapiens, UniProt Q96GG9) | binding, inhibitor, TR-FRET |  | 24 h, racemic mixture | IC50 | 76 ± 29 nM |
| NC(=O)c1cccc2c1O/C(=C\c1ccc(C(=O)N3CCN(c4nc5ccccc5[nH]4)CC3)s1)C2=O | PARP1 | inhibitor |  |  | IC50 | 17 nM |
| Cc1cc2c(cc1N1C(=O)c3cccc4c(Cl)ccc(c34)C1=O)n(C)c(=O)n2C | Peregrin, bromodomain; with histone H4 (BRPF1, Homo sapiens, UniProt P55201) | binding, inhibitor, NanoBRET | HCT-116 |  | IC50 | > 10000 nM |
| CNC(=O)[C@@H](NC(=O)[C@H](CC(C)C)[C@H](O)C(=O)NO)C(C)(C)C | THP-1 | pyroptotic LDH release |  | 2 µM, 40 min, added: LPS then nigericin | inhibition | -16.7% |
| Cc1ccc2nc(-c3ccc(N=NNc4ccc(-c5nc6ccc(C)c(S(=O)(=O)O)c6s5)cc4)cc3)sc2c1S(=O)(=O)O | Luciferin 4-monooxygenase (Photinus pyralis, UniProt P08659) | enzyme activity, inhibitor, luciferase |  |  | IC50 | 2800 nM |
| Nc1ccnc(-c2ccccc2)c1 | TMEM175 (Homo sapiens, UniProt Q9BSA9) | potassium current, inhibitor, whole-cell patch clamp | HEK293T | pH neutral, +80 mV pulse | IC50 | ~32000 nM |
| COCc1nn(Cc2ccc(Cn3ccccc3=O)cc2)cc1C(=O)NCc1cc(C)[nH]n1 | F11 |  |  |  | IC50 | > 40000 nM |
| Cc1cc(Nc2cc(CN3CCOCC3)c3nc(C)c(Cc4ccc(Cl)cc4F)n3n2)n[nH]1 | JAK2 (Homo sapiens, UniProt O60674) | enzyme activity, inhibitor |  |  | IC50 | 2.52 ± 0.49 nM |
| C[C@]12CC[C@H](O)CC1=CC[C@@H]1[C@@H]2CC[C@]2(C)C(c3cccnc3)=CC[C@@H]12 | THP-1 | pyroptotic LDH release |  | 2 µM, 40 min, added: LPS then nigericin | inhibition | -33.4% |
| COC(=O)C1CCN(C(=O)c2ccc(N(Cc3ccccc3)Cc3cnc4nc(N)nc(N)c4n3)cc2)CC1 | TYMS | inhibitor |  |  | IC50 | > 100000 nM |
| COc1cccc(F)c1-c1nc(-c2ccc(F)cc2)c(-c2ccncc2)[nH]1 | TGFBR1 | binding, LanthaScreen kinase binding |  |  | IC50 | 89.1 ± 7.5 nM |
| COCc1nn(Cc2ccc(Cn3ccccc3=O)cc2)cc1C(=O)NCc1nccc(OC(C)C)c1F | F11 |  |  |  | IC50 | > 40000 nM |
| Fc1ccc(-c2nc(-c3ccc4ccccc4c3Br)[nH]c2-c2ccncc2)cc1 | TGFBR1 | binding, LanthaScreen kinase binding |  |  | IC50 | 75.6 ± 9.3 nM |
| Cn1c(SCc2ccccc2Cl)nc(=O)c2c1NC(=O)CC2c1cccc(O)c1 (stereo not shown) | Protein lin-28 homolog A |  |  |  | IC50 | 12300 nM |
| Fc1ccc(-c2nc(-c3ccccc3Cl)[nH]c2-c2ccncc2)cc1 | TGFBR1 | binding, LanthaScreen kinase binding |  |  | IC50 | 192 ± 20.3 nM |
| CCc1ccc(Cn2nnc3c4ccc(F)cc4c(=O)[nH]c32)cc1 | PARP4 (Homo sapiens, UniProt Q9UKK3) |  |  |  | IC50 | > 10000 nM |

Excerpt of the above:
| SMILES | tested on | test | test system | conditions | measurement | value |
| --- | --- | --- | --- | --- | --- | --- |
| NC(=O)c1cccc2c1O/C(=C\c1ccc(C(=O)N3CCN(c4nc5cc(Cl)ccc5[nH]4)CC3)s1)C2=O | PARP1 | inhibitor |  |  | IC50 | 140 nM |
| COc1cccc(F)c1-c1nc(-c2ccc(F)cc2)c(-c2ccncc2)[nH]1 | TGFBR1 | binding, LanthaScreen kinase binding |  |  | IC50 | 89.1 ± 7.5 nM |
| Cc1ccc2nc(-c3ccc(N=NNc4ccc(-c5nc6ccc(C)c(S(=O)(=O)O)c6s5)cc4)cc3)sc2c1S(=O)(=O)O | Luciferin 4-monooxygenase (Photinus pyralis, UniProt P08659) | enzyme activity, inhibitor, luciferase |  |  | IC50 | 2800 nM |
